Measurements of several laboratories.
Protocols differ between the studies behind these lines. Values joined by “and” are separate records of one study, mostly repeats; a detail may differ. ± gives the spread as reported.
rep nsp13 helicase: Replicase polyprotein 1ab, nsp13 helicase (rep, Severe acute respiratory syndrome coronavirus 2, UniProt P0DTD1)
rep methyltransferase: Replicase polyprotein 1ab, methyltransferase (rep, Severe acute respiratory syndrome coronavirus 2, UniProt P0DTD1)
rep main protease: Replicase polyprotein 1ab, main protease (rep, Severe acute respiratory syndrome coronavirus 2, UniProt P0DTD1)
rep nsp14: Replicase polyprotein 1ab, nsp14 (rep, Severe acute respiratory syndrome coronavirus 2, UniProt P0DTD1)
rep papain-like protease: Replicase polyprotein 1ab, papain-like protease (rep, Severe acute respiratory syndrome coronavirus 2, UniProt P0DTD1)

| Molecule | target or system | test | system | setting | measurement | result |
| --- | --- | --- | --- | --- | --- | --- |
| O=C(Nc1ccc2oc(=O)ccc2c1)c1ccc(-c2cccc([N+](=O)[O-])c2)o1 | rep nsp13 helicase | helicase ATPase activity, inhibitor, Kinase-Glo luminescence |  |  | IC50 | > 150 µM |
| Cc1cc(-c2ccc(/N=N/c3ccc4c(S(=O)(=O)O)cc(S(=O)(=O)O)c(N)c4c3O)c(C)c2)ccc1/N=N/c1ccc2c(S(=O)(=O)O)cc(S(=O)(=O)O)c(N)c2c1O | rep methyltransferase | enzyme activity, inhibitor |  | pH 7.5 | IC50 | < 10 µM |
| O=c1cc(-c2ccc(O)cc2)oc2cc(O[C@@H]3O[C@H](CO)[C@@H](O)[C@H](O)[C@H]3O)cc(O)c12 | rep main protease | enzyme activity, inhibitor |  | with: fluorogenic substrate | IC50 | 14.3 ± 0.61 µM |
| Cc1c(S(=O)(=O)N2CCc3n[nH]cc3C2)cc(C(=O)NCc2c(F)cccc2N2CCCC2)n1C | rep nsp14 | inhibitor |  |  | IC50 | 0.00039 µM |
| Cc1cc(Cl)ccc1Oc1ccccc1C(=O)CC#N | rep nsp13 helicase | helicase ATPase activity, inhibitor, Kinase-Glo luminescence |  | 60 min, with: 2.5 µM ATP | IC50 | 58 µM |
| CC(=O)[C@]1(O)Cc2c(O)c3c(c(O)c2[C@@H](O[C@H]2C[C@H](N)[C@H](O)[C@H](C)O2)C1)C(=O)c1ccccc1C3=O | rep main protease | enzyme activity, inhibitor, FRET |  |  | IC50 | 250 to 600 µM |
| C[C@@H]1O[C@@H](O[C@@H]2[C@@H](O)[C@H](OCCc3ccc(O)c(O)c3)O[C@H](CO)[C@H]2OC(=O)/C=C/c2ccc(O)c(O)c2)[C@H](O)[C@H](O)[C@H]1O | rep main protease | enzyme activity, inhibitor |  | with: fluorogenic substrate | IC50 | 39.8 ± 1.69 µM |
| CCC[C@H](NC(=O)[C@H](CC(C)C)NC(=O)OCc1ccccc1)C(=O)C(=O)NCc1ccccc1 | rep main protease | enzyme activity, inhibitor, FRET |  | pH 6.5 | IC50 | 64.5 µM |
| CCC(C(=O)Nc1ccccc1C)n1cccc2nc(SCc3ccccc3F)nc1-2 (centres unmarked) | rep papain-like protease | enzyme activity, inhibitor |  |  | IC50 | 3.58 µM |
| CC1CC(c2ccc(O)cc2)=NN1c1ccc(C#N)c(Cl)c1 (centres unmarked) | rep methyltransferase | enzyme activity, inhibitor |  |  | IC50 | > 100 µM |
| CCC(C(=O)Nc1ccccc1C)n1cccc2nc(SCc3ccc(OC)cc3)nc1-2 (centres unmarked) | rep papain-like protease | enzyme activity, inhibitor |  |  | IC50 | 3.51 µM |
| CNC(=O)c1ccc(C2=NN(c3ccc(C#N)c(Cl)c3)C(C)C2)cc1 (centres unmarked) | rep methyltransferase | enzyme activity, inhibitor |  |  | IC50 | > 100 µM |
| Cc1ccc(N2C(=O)NC(=O)/C(=C\c3ccc(-c4ccc(Cl)c(C(=O)O)c4)o3)C2=O)cc1 | rep nsp13 helicase | helicase ATPase activity, inhibitor, Kinase-Glo luminescence |  | 60 min, with: 2.5 µM ATP | IC50 | 59 µM |
| CCCC(C(=O)Nc1cc(NC2CCNCC2)ccc1C)n1cccc2nc(SCc3ccc(F)cc3)nc1-2 (centres unmarked) | rep papain-like protease | enzyme activity, inhibitor |  |  | IC50 | 1.74 µM |
| O=C(O)c1ccc(-n2cccc2/C=C2/NC(=O)N(c3cccc(Cl)c3)C2=O)cc1 | rep nsp13 helicase | helicase ATPase activity, inhibitor, Kinase-Glo luminescence |  | 60 min, with: 2.5 µM ATP | IC50 | 3 µM |
| ivermectin | rep main protease | enzyme activity, inhibitor | SARS-CoV-2 |  | IC50 | 5.48 ± 0.75 µM |
| O=C1/C(=C/C=C/c2ccco2)SC(=S)N1c1ccc(O)cc1 | rep nsp13 helicase | helicase ATPase activity, inhibitor, Kinase-Glo luminescence |  | 60 min, with: 2.5 µM ATP | IC50 | 3 µM |
| CCn1ccc(-c2cc(-c3cnn(C)c3)cc([C@@H](C)NC(=O)c3ccccc3CCC(=O)NNC(C)=O)c2)n1 | rep papain-like protease | enzyme activity, inhibitor |  |  | IC50 | > 10 µM |
| NC(=S)N/N=C/c1ccc(C23CC4CC(CC(C4)C2)C3)cc1 | rep nsp13 helicase | helicase ATPase activity, inhibitor, Kinase-Glo luminescence |  | 60 min, with: 2.5 µM ATP | IC50 | > 200 µM |
| Cn1cc(C(=O)Nc2nc(-c3ccccn3)cs2)c2ccccc2c1=O | rep methyltransferase | enzyme activity, inhibitor |  |  | IC50 | 123 µM |
| CC(=O)N[C@@H](CS)C(=O)O | rep nsp13 helicase | helicase dsDNA unwinding, inhibitor |  | based on Bi content | IC50 | > 150 µM |
| CC(C)C1CC(c2ccc(C(=O)O)cc2)=NN1c1ccc(C#N)c(Cl)c1 (centres unmarked) | rep methyltransferase | enzyme activity, inhibitor |  |  | IC50 | 3.16 µM |

| Molecule | target or system | test | system | setting | measurement | result |
| --- | --- | --- | --- | --- | --- | --- |
| O=[N+]([O-])[O-].[Ag+] | rep main protease | enzyme activity, inhibitor |  |  | IC50 | > 50 µM |
| O=C(Nc1ccccc1-c1cn2c(CN3CCNCC3)csc2n1)c1cnc2ccccc2n1 | rep main protease | enzyme activity, inhibitor |  |  | IC50 | > 128 µM |
| COC(=O)c1ccccc1NC(=O)c1ccc2c(c1)CC(c1ccc(F)cc1)OC2=O (centres unmarked) | rep methyltransferase | enzyme activity, inhibitor |  |  | IC50 | > 250 µM |
| CC[C@H](CC[C@@H](C)[C@H]1CC[C@H]2[C@@H]3CC=C4C[C@@H](O[C@@H]5O[C@H](CO)[C@@H](O)[C@H](O)[C@H]5O)CC[C@]4(C)[C@H]3CC[C@]12C)C(C)C | rep main protease | enzyme activity, inhibitor |  | with: fluorogenic substrate | IC50 | 137 ± 5.83 µM |
| CC(C)n1c[n+](C(C)C)c2ccccc21.[Ag][I] | rep main protease | enzyme activity, inhibitor |  |  | IC50 | > 50 µM |
| O=C(Nc1cccc(C(=O)Nc2ccc(S(=O)(=O)O)c3cc(S(=O)(=O)O)cc(S(=O)(=O)O)c23)c1)Nc1cccc(C(=O)Nc2ccc(S(=O)(=O)O)c3cc(S(=O)(=O)O)cc(S(=O)(=O)O)c23)c1 | rep methyltransferase | enzyme activity, inhibitor |  |  | IC50 | 84.7 µM |
| CC1CC(c2ccc(C(=O)O)cc2)=NN1c1ccccc1 (centres unmarked) | rep methyltransferase | enzyme activity, inhibitor |  |  | IC50 | 100 µM |
| CC(C)N(CCC(=O)c1ccc2ccccc2c1)Cc1ccccc1 | rep methyltransferase | enzyme activity, inhibitor |  | pH 7.5 | IC50 | < 10 µM and 6 µM |
| CC(COc1ccccc1)N(CCCl)Cc1ccccc1 (centres unmarked) | rep nsp14 | methyltransferase activity, inhibitor, RapidFire MS, item: SAH |  |  | IC50 | 58.2 to 91 µM |
| CCC(C(=O)Nc1cc(NC2CNC2)ccc1C)n1cc(Cl)cc2nc(SCc3ccc(F)cc3)nc1-2 (centres unmarked) | rep papain-like protease | enzyme activity, inhibitor |  |  | IC50 | 0.095 µM |
| CCOC(=O)c1c(NC(=O)c2cc3ccccc3o2)sc(C)c1-c1ccccc1 | rep methyltransferase | enzyme activity, inhibitor |  |  | IC50 | 97.9 µM |
| CC1(C)S[C@@H]2[C@H](NC(=O)[C@H](N)c3ccccc3)C(=O)N2[C@H]1C(=O)OC1OC(=O)c2ccccc21 (some centres unmarked) | rep main protease | enzyme activity, inhibitor, FRET |  |  | IC50 | 250 to 600 µM |
| Cc1nn(-c2ccc(Cl)cc2)c2c1C(c1ccc(Cl)cc1Cl)C(C#N)=C(N)O2 (centres unmarked) | rep main protease | 3CL protease activity |  | 60 min | IC50 | 3.68 µM |
| Cc1ccc2nc(N3C(=O)C(O)=C(C(=O)c4ccco4)C3c3ccc(O)cc3)sc2c1 (centres unmarked) | rep nsp13 helicase | helicase ATPase activity, inhibitor, Kinase-Glo luminescence |  | 60 min, with: 2.5 µM ATP | IC50 | 18 µM |
| CC[C@H](C)[C@H](NC(=O)[C@H](CC(C)C)NC(=O)[C@H](Cc1c[nH]c2ccccc12)NC(=O)[C@H](CCC(N)=O)NC(=O)[C@@H](NC(=O)[C@H](Cc1ccccc1)NC(=O)[C@H](C)NC(=O)[C@H](CCCCNC(=O)COCCOCCNC(=O)COCCOCCNC(=O)CC[C@H](NC(=O)CCCCCCCCCCCCCCCCCCC(=O)O)C(=O)O)NC(=O)[C@H](CCC(N)=O)NC(=O)[C@H](C)NC(=O)[C@@H](NC(=O)[C@H](CCCCN)NC(=O)[C@H](CC(=O)O)NC(=O)[C@H](CC(C)C)NC(=O)C(C)(C)NC(=O)[C@@H](NC(=O)[C@H](CO)NC(=O)[C@H](Cc1ccc(O)cc1)NC(=O)[C@H](CC(=O)O)NC(=O)[C@H](CO)NC(=O)[C@@H](NC(=O)[C@H](Cc1ccccc1)NC(=O)[C@@H](NC(=O)CNC(=O)[C@H](CCC(=O)O)NC(=O)C(C)(C)NC(=O)[C@@H](N)Cc1ccc(O)cc1)[C@@H](C)O)[C@@H](C)O)[C@@H](C)CC)[C@@H](C)CC)C(C)C)C(=O)N[C@@H](C)C(=O)NCC(=O)NCC(=O)N1CCC[C@H]1C(=O)N[C@@H](CO)C(=O)N[C@@H](CO)C(=O)NCC(=O)N[C@@H](C)C(=O)N1CCC[C@H]1C(=O)N1CCC[C@H]1C(=O)N1CCC[C@H]1C(=O)N[C@@H](CO)C(N)=O |  |  | healthy human | 0.5 mg, single ascending dose | serious adverse events | 0% |
| COc1ccccc1C(C)NC(=O)c1cc(S(=O)(=O)N2CCC(C)CC2)c(C)n1C (centres unmarked) | rep nsp14 | inhibitor |  |  | IC50 | 1.1 µM |
| O=C(O)C1=C(CSc2nnnn2CS(=O)(=O)O)CS[C@@H]2[C@H](NC(=O)[C@H](O)c3ccccc3)C(=O)N12 | rep papain-like protease | enzyme activity, inhibitor |  |  | IC50 | 2.17 µM |
| C/C1=C2/[N-][C@H]([C@H](CC(N)=O)[C@@]2(C)CCC(=O)NC[C@@H](C)OP(=O)([O-])O[C@H]2[C@@H](O)[C@@H](n3cnc4cc(C)c(C)cc43)O[C@@H]2CO)[C@]2(C)N=C(/C(C)=C3N=C(/C=C4N=C1[C@@H](CCC(N)=O)C\4(C)C)[C@@H](CCC(N)=O)[C@]\3(C)CC(N)=O)[C@@H](CCC(N)=O)[C@]2(C)CC(N)=O.[Co+3].[OH-] | rep main protease | 3CL protease activity, inhibitor |  |  | IC50 | 3.29 µM |
| CCC(C(=O)Nc1cc(NC2CCOC2)ccc1C)n1cc(Br)cc2nc(SCc3ccc(F)cc3)nc1-2 (centres unmarked) | rep papain-like protease | enzyme activity, inhibitor |  |  | IC50 | 0.511 µM |
| CCCCCOc1ccc(C2C(C(=O)c3ccc(C)o3)=C(O)C(=O)N2c2cc(C)on2)cc1 (centres unmarked) | rep nsp13 helicase | helicase ATPase activity, inhibitor, Kinase-Glo luminescence |  | 60 min, with: 2.5 µM ATP | IC50 | 5 µM |
| CCC(C(=O)Nc1ccccc1C)n1cccc2nc(S)nc1-2 (centres unmarked) | rep papain-like protease | enzyme activity, inhibitor |  |  | IC50 | > 20 µM |
| CCn1c[n+](CC)c2ccc(OC)cc21.[Cl][Ag] | rep main protease | enzyme activity, inhibitor |  |  | IC50 | > 50 µM |
